# Assay results collected from several papers.
# Protocols differ between the studies behind these lines. Numbers after ± are the reported error.
Molecule,test,test system,conditions,scale,endpoint,result
COc1cc(OC)c(/C=C/S(=O)(=O)Cc2ccc(OC)c(NCC(=O)O)c2)c(OC)c1,,"cancer patients, phase I, plasma","oral, 560 mg twice daily, day 21 cycle 1",,AUC(0-inf),6990 ± 5880 ng·h/mL
Cc1c(O)cccc1C(=O)N[C@@H](CSc1ccccc1)[C@H](O)CN1C[C@H]2CCCC[C@H]2C[C@H]1C(=O)NC(C)(C)C,equilibrium dialysis,"cellulose membrane, cell-free","pH 7.4, no Pluronic P85",,effective permeability,50 ± 2.5 ×10⁻⁶ cm/s
Cn1c(C(F)(F)F)cc(=O)n(-c2cc(Oc3cccnc3OCC(=O)O)c(Cl)cc2F)c1=O,,"beagle dog, male, plasma","oral, 100 mg/kg/day, 13 weeks, NOAEL of epyrifenacil",,AUC(0-24 h),10600 ng·h/mL
O=C(O)c1cc(-c2ccc(F)cc2F)ccc1O,shake-flask,PEG400,37 °C,,thermodynamic solubility,169 ± 27.3 mg/g
C/C=C/C=C/C=C\CC/C=C/C(=O)NCC(C)(C)O,,"rat, small intestine site 4 contents","oral, dose not given, 4 h, no β-glucuronidase treatment",relative to: ingested amount,recovery,0.02%
Cc1ncnc2c1c(Cl)cn2[C@@H]1O[C@H](CO)[C@@H](O)[C@H]1O,metabolic stability,"mouse, liver microsomes",0 h,,compound remaining,100%
COc1cc(C)c(/C=C/C(C)=C/C=C/C(C)=C/C(=O)O)c(C)c1C,shake-flask,PEG400,37 °C,,thermodynamic solubility,1.07 ± 0.01 mg/g
CN1CC[C@@H](NC(=O)Nc2ccc(C#N)cc2)C[C@@H]1c1nc2ccccc2[nH]1,,"Japanese patients, plasma","oral, 50 mg once daily, cycle 1 day 21, steady state, geometric mean",,average plasma concentration,388 ng/mL
C=CC(N)CCC(=O)O (stereo not shown),,"male Sprague-Dawley rat, plasma","oral, 10 mg/kg, formulation 9, together with: low-fat infant formula 1500 mg/kg",,fraction absorbed,68 ± 1%
C[C@](N)(Cc1ccc(O)c(O)c1)C(=O)O,,supercritical carbon dioxide,"5 h, 313 K, 21 MPa, density 850.4 kg/m3",,solubility,185 µg/mL
C[N+]1(CC(=O)OC2CCCCCCCCCCC2)CCCC1,metabolic stability,"male CD-1 mouse, liver microsomes","1 µM, pH 7.4",,microsomal CLint,368 µL/min/mg
Cc1nc2cccc(OCC(C)(C)C(=O)NC(C)C)c2c(N)c1C(=O)O,,"Sprague-Dawley rat, female, plasma","intravenous, 1.0 mg/kg, day 1",,Cmax,2630 ± 680 ng/mL
Cc1cc(Oc2nccc3occc23)ccc1-c1c(C)c(=O)[nH]c(=O)n1C,,"Swiss albino male mice, brain and plasma","intraperitoneal, 50 mg/kg",,duration of stable levels,≥ 4 h
CC(C)NCC(O)c1ccc(NS(C)(=O)=O)cc1 (racemic),,"male Hartley guinea pig, anaesthetized","intravenous infusion, 1 mg/kg, 10 min infusion",relative to: baseline,QTc change,18.1 ± 5.3%
O=c1c(O)c(-c2ccccc2)oc2cc(O)cc(O)c12,mass spectrometry,Caco-2,"40 µM, 6 h",,Papp A→B,6.86 ×10⁻⁶ cm/s
Cc1cc(-n2c(=O)[nH]c(=O)n(C)c2=O)ccc1Oc1ccc(SC(F)(F)F)cc1,shake-flask,polysorbate 80,37 °C,,thermodynamic solubility,11.1 ± 1.29 mg/g
CC1(C)Oc2cc3oc(=O)ccc3cc2C[C@@H]1O,,"CD-1 mouse, male, heart","oral gavage, 80 mg/kg daily, 4 weeks",,organ weight,0.18 ± 0.01 g
CCCC[C@@H]1NC(=O)[C@@H](NC(=O)[C@H](CCC(=O)O)NC(=O)CNC(=O)CN2CCN(CC(=O)O)CCN(CC(=O)O)CCN(CC(=O)O)CC2)CCCCNC(=O)C[C@@H](C(N)=O)NC(=O)[C@H](C(C)C)NC(=O)[C@@H]2CCCN2C(=O)[C@H](CCCNC(=N)N)NC(=O)CNC(=O)[C@H](Cc2c[nH]c3ccccc23)NC(=O)[C@H](CCCNC(=N)N)NC(=O)[C@@H](Cc2ccccc2)NC(=O)[C@H](Cc2c[nH]cn2)NC(=O)[C@H](CCC(=O)O)NC1=O [indium-111 labelled],,"normal C57 mice, lung","intravenous, 0.037 MBq, 2 h",,tissue uptake,0.08 ± 0.08 %ID/g
O=C(O)[C@H](c1ccccc1Cl)N1CCc2sccc2C1,HPLC-MS/MS,feline citrate plasma,"6 h, -20 °C, storage stability",,deviation from nominal,0%
CCCC[C@H](NC(C)=O)C(=O)N[C@H]1CCC(=O)NC[C@@H](C(=O)N[C@@H](Cc2c[nH]c3ccccc23)C(N)=O)NC(=O)[C@H](CCCNC(=N)N)NC(=O)[C@@H](Cc2ccccc2)NC(=O)[C@H](Cc2c[nH]cn2)NC1=O,,"healthy volunteers, both sexes, plasma","subcutaneous, 1.0 mg once daily, day 1",,median Cmax,18.5 ng/mL
CN(C)CCN1C(=O)c2ccccc2NC12C(=O)N(C)c1ccc(Br)cc12 (stereo not shown),shake flask,aqueous buffer,pH 7.4,,logD,1.6
O=C1N=C(N2CCOCC2)CN1c1ccc(Cl)cc1,,"beagle dog, both sexes","oral, 30 mg/kg, day 5, tablets, after 4 days twice daily",,apparent volume of distribution (Vz/F),1.06 L/kg
COc1ccc2[nH]c([S+]([O-])Cc3ncc(C)c(OC)c3C)nc2c1 (stereo not shown),"UHPLC-MS/MS, noncompartmental","healthy Chinese volunteers, CYP2C19 *1/*2, plasma","oral, 20 mg single dose",,t1/2,1.12 ± 0.62 h
C[C@]12CC[C@@H]3c4ccc(O)cc4CC[C@H]3[C@@H]1C[C@@H](O)[C@@H]2O,GC-MS,"breast cancer women on NSAI, serum","vaginal, 0.03 mg, 4 h, day 0",,median serum concentration,0.0261 ng/mL
N[C@@H](CC(=O)N1CCn2c(nnc2C(F)(F)F)C1)Cc1cc(F)c(F)cc1F,,"healthy Korean subjects, plasma","oral, 100 mg single dose, ABCB1 G2677T/A GA+GT",,AUC(0-2 h),467 ± 194 ng·h/mL
CC[C@H](C)CCCCC(=O)N[C@@H](CCN)C(=O)N[C@H](C(=O)N[C@@H](CCN)C(=O)N[C@H]1CCNC(=O)[C@H]([C@@H](C)O)NC(=O)[C@H](CCN)NC(=O)[C@H](CCN)NC(=O)[C@H](CC(C)C)NC(=O)[C@@H](Cc2ccccc2)NC(=O)[C@H](CCN)NC1=O)[C@@H](C)O,UPLC-MS/MS,"intensive care patients Non-AKI, plasma","iv, dose not given, 6 h post-dose, steady state, polymyxin B dosing",,mid-interval concentration,2500 ± 800 ng/mL
CCCC(C)N1CCC(N(Cc2ccccc2)C(=O)Nc2cccc(C(F)(F)F)c2)CC1 (stereo not shown),,"CD-1 female mouse, liver microsomes",0.8 µM,,intrinsic clearance,170 mL/min/kg
NC(=O)N1c2ccccc2C=Cc2ccccc21,shake-flask,Captex 355,37 °C,,thermodynamic solubility,2.56 ± 0.12 mg/g
CCN(CC)CCNC(=O)c1c(C)[nH]c(/C=C2\C(=O)Nc3ccc(F)cc32)c1C,,human,"oral, 50 mg/day, day 15-29, efavirenz group",,"Cmin,ss",17.7 ± 7.7 ng/mL
COC(=O)N[C@H](C(=O)N1CCC[C@H]1c1nc(-c2ccc(-c3ccc(-c4c[nH]c([C@@H]5CCCN5C(=O)[C@@H](NC(=O)OC)C(C)C)n4)cc3)cc2)c[nH]1)C(C)C,,Caco-2,,,Papp A→B,3.3 ×10⁻⁶ cm/s
des-acyl ghrelin (human),,"Ghsr knockout mice, whole brain","intravenous, dose not given, 10 min, vascular space corrected",,tissue/serum ratio,7.98 µL/g
CS(=O)(=O)n1cc2c(n1)CN([C@H]1CO[C@H](c3cc(F)ccc3F)[C@@H](N)C1)C2,,human male,oral,,QTc slope vs plasma concentration,0.3 ms/µM
Clc1ccccc1C(c1ccccc1)(c1ccccc1)n1ccnc1,shake-flask,PEG400,37 °C,,thermodynamic solubility,74.5 ± 5.92 mg/g
COc1ccc2nc([S@@+]([O-])Cc3ncc(C)c(OC)c3C)[nH]c2c1,,human healthy,"40 mg, menstruation delayed",,adverse events,0%
CCCOc1ccc([C@H]2CNC(=O)N2c2ccc3[nH]cnc3c2)cc1,,"human, plasma","oral, 100 mg, single dose, fasted",,AUC(0-inf),692 ng·h/mL
Cc1cccc(Nc2ccccc2C(=O)O)c1C,shake-flask,soybean oil,37 °C,,thermodynamic solubility,1.87 ± 0.12 mg/g
C[C@H]1CO[C@@H]2Cn3cc(C(=O)NCc4ccc(F)cc4F)c(=O)c(O)c3C(=O)N12,,"HIV-infected adults, CSF and plasma","intramuscular, dose not given, total, median, every 4 or 8 weeks",relative to: CSF over plasma,tissue/plasma ratio,0.003 to 0.0034
